# Results gathered from unrelated publications.
# A part holds a random share of what one study measured. “And” joins repeats or separate records; there may be more than shown. ± marks the error that the study gave.
# Sequence of UniProt P21860 (whole entry, looked up): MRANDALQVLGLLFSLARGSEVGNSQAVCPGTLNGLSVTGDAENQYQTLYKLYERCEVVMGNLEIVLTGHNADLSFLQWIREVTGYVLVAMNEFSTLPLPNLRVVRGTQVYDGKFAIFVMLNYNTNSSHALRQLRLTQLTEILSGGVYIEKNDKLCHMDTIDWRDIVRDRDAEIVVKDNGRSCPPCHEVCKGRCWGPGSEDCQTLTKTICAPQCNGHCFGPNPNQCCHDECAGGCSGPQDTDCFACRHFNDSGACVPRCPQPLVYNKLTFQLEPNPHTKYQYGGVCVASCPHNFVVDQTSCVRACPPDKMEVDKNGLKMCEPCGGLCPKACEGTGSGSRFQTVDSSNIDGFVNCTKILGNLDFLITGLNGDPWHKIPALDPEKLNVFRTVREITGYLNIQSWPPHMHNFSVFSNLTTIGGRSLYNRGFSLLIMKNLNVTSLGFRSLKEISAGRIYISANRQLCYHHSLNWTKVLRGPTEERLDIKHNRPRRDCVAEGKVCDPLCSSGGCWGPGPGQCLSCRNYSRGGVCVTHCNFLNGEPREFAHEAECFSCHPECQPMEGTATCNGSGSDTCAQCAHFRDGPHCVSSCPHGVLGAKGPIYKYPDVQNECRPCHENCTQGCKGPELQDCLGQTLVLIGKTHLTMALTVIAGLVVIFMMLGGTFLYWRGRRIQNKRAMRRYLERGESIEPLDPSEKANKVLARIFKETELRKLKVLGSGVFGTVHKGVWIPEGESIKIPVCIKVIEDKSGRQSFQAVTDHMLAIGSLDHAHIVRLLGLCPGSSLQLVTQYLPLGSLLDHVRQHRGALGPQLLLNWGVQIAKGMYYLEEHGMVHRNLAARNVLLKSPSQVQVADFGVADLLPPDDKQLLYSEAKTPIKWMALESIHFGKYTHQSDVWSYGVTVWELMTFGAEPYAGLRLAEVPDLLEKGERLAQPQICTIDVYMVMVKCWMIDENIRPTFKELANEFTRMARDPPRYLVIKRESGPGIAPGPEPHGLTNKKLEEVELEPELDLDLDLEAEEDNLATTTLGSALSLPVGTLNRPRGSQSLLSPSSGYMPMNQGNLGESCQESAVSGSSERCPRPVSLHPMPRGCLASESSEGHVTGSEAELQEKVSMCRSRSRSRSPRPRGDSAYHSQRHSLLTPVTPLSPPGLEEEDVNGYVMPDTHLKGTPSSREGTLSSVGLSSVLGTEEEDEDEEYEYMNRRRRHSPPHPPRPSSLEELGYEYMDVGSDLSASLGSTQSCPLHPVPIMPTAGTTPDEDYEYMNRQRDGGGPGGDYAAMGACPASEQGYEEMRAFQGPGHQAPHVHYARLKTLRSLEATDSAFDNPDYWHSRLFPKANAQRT
# Sequence of UniProt O43293 (whole entry, looked up): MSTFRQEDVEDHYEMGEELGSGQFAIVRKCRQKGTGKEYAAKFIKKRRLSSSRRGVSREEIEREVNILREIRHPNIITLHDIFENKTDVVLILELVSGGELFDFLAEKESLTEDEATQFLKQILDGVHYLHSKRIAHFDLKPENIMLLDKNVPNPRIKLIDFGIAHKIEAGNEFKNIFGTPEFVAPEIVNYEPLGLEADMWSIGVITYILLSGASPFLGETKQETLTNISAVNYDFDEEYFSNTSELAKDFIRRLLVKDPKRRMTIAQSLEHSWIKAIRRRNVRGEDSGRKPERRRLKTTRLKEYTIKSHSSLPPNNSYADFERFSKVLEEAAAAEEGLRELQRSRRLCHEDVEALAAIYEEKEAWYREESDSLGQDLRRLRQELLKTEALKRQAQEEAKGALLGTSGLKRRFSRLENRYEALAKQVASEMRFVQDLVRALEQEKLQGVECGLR
# Sequence of UniProt O14965 (whole entry, looked up): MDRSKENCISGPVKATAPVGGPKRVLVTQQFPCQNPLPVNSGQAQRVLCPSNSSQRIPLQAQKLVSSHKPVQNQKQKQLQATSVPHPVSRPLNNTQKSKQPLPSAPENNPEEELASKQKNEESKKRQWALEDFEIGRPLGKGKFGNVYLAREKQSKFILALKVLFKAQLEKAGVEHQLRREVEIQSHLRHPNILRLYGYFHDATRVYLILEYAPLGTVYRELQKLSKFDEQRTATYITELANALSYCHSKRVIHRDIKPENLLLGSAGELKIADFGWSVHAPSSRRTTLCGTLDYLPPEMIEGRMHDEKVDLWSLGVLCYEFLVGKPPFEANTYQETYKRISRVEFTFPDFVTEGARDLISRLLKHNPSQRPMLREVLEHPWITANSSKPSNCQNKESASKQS

# Series 1
# Structure (SMILES): Cc1ncsc1-c1ccc(C(CO)NC(=O)C2CC(O)CN2C(=O)C(C(C)C)n2cc(-c3ccc(COc4c(-c5c(C)c(F)cc6[nH]ncc56)c(C5CC5)cc5c(N6CC7CC6CN7)nc(OC6CCOCC6)nc45)cc3)nn2)cc1 (stereo not shown)
# Method: qRT-PCR
# Host: mouse, PK-59 xenograft
# Matrix: tumour
# Notes: unit not given
measured,route,dose,time,baseline,mRNA level
FOSL1,,30 mg/kg,48 h,vehicle,0.0226 and 0.023 and 0.0248 and 0.025
DUSP6,,10 mg/kg,144 h,vehicle,0.422 and 0.581 and 0.332
SPRY4,,10 mg/kg,144 h,vehicle,0.452 and 0.46 and 0.893
ETV4,intravenous,10 mg/kg,72 h,"vehicle, same time point",0.00561 and 0.00411 and 0.00474
DUSP6,,30 mg/kg,48 h,vehicle,0.045 and 0.062 and 0.0615
SPRY4,intravenous,10 mg/kg,48 h,"vehicle, same time point",0.00167 and 0.00124 and 0.000945

# Series 2
# Compound: NC/C(=C\F)COc1ccc(Cn2c(=S)[nH]c(=O)c3[nH]cnc32)cc1
# Observed: enzyme activity
# MPO: Myeloperoxidase (MPO, Homo sapiens, UniProt P05164)
# Sequence of UniProt P05164 (whole entry, looked up): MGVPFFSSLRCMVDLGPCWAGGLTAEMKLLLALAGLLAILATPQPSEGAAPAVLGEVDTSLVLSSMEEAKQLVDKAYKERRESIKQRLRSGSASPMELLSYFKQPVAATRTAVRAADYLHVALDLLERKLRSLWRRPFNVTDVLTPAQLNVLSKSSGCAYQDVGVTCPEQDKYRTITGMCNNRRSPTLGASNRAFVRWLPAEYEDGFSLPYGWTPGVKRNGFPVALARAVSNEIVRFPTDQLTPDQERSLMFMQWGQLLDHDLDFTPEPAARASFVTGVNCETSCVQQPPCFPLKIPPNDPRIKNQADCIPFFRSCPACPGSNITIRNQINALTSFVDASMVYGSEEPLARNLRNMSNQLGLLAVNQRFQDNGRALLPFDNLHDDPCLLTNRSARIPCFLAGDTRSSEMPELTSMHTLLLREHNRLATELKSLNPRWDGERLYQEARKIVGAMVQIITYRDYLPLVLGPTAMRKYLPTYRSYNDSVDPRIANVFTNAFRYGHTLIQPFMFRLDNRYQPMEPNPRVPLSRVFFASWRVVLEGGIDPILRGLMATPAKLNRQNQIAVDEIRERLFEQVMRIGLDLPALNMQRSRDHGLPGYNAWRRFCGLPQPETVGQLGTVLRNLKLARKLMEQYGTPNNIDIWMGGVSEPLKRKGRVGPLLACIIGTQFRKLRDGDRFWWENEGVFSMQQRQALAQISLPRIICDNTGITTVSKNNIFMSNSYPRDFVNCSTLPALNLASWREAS
target,mode,method,tested at,inhibition
MPO,inhibitor,fluorescence,0.3704 µM,-2.86%
"AOC3 (Homo sapiens, UniProt Q16853)",inhibitor,fluorescence,10 µM,99.9%
MPO,,,0.0152 µM,-20.2% and -3.76%
MPO,inhibitor,fluorescence,41.2 nM,-5.82%

# Series 3
# SMILES: C[C@@H]1CN(c2ccc(-c3cc(C(=O)NCCOCCOCCOCCOCCNC(=O)Cn4cc(-c5[nH]cc(C(=O)N[C@@H](CC(N)=O)c6ccc(F)c(Cl)c6)c5-c5ccc(Cl)cc5F)cn4)ccc3F)cc2NC(=O)c2c[nH]c(=O)cc2C(F)(F)F)C[C@H](C)N1C
# Observed: thermal unfolding
# Method: differential scanning fluorimetry
# Tested at: 5.5 µM
# Direction: higher = more unfolded
# WDR5: WD repeat-containing protein 5 (WDR5, Homo sapiens, UniProt P61964)
# DCAF1: DDB1- and CUL4-associated factor 1 (DCAF1, Homo sapiens, UniProt Q9Y4B6)
# Sequence of UniProt Q9Y4B6 (whole entry, looked up): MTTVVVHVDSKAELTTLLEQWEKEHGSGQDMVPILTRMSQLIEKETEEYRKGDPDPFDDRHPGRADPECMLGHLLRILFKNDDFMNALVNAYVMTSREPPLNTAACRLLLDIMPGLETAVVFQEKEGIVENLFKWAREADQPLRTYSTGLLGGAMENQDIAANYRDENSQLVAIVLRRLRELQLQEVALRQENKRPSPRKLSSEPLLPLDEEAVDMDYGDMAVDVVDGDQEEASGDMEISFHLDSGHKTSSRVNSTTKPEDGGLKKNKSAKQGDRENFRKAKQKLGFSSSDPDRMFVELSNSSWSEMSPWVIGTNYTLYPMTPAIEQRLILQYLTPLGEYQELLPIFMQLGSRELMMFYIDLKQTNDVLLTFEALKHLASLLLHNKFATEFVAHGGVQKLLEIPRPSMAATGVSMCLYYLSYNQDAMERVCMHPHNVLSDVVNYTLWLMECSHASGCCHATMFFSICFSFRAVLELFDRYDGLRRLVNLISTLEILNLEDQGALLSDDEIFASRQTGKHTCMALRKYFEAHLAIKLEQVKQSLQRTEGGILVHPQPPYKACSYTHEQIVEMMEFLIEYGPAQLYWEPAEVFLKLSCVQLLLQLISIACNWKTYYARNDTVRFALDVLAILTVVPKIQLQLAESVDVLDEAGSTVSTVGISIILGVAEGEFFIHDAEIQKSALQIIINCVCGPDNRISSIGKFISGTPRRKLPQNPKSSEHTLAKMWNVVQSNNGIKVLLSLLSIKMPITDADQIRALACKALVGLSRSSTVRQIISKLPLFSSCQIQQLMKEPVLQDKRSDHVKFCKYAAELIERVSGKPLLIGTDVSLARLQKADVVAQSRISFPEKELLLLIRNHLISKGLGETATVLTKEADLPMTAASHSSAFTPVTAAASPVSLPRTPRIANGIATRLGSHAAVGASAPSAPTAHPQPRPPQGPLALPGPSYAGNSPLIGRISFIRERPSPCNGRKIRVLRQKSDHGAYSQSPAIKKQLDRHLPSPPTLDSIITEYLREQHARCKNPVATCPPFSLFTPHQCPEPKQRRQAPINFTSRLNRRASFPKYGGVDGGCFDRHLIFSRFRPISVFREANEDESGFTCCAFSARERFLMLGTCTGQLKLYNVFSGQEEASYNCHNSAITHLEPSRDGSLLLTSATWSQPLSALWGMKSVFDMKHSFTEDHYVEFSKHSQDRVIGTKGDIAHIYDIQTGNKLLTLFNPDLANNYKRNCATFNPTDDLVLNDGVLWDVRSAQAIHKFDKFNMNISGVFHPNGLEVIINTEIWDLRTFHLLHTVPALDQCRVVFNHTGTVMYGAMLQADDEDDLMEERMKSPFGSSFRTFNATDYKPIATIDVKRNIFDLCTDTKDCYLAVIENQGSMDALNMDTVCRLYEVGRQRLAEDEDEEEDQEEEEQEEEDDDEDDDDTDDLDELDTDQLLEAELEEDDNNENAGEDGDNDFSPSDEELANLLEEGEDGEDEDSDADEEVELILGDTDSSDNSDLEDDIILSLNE
target,temperature,SYPRO Orange fluorescence [a.u.]
WDR5,26 °C,14700
DCAF1,37.4 °C,9490
DCAF1,33.8 °C,8530
DCAF1,82.41 °C,42200
DCAF1,69.01 °C,55300
WDR5,44.6 °C,14400
DCAF1,69.41 °C,55000
WDR5,94.01 °C,39100
WDR5,76.21 °C,13300
WDR5,62.61 °C,9010
WDR5,56.21 °C,12900

# Series 4
# SMILES: Cc1nc(C)c(C=[N+]([O-])C(C)(C)C)nc1C
# Notes: unit not given
# Baseline: β-actin
tested on,assay,system,setting,protein level
,"western blot, measured: MEF2D","MPTP mouse model, substantia nigra nuclei",30 mg/kg,144 and 113 and 181
primary rat midbrain neurons,"Western blot, measured: SIRT1",,"100 µM, together with: MPP+",163 and 95.6 and 169
primary rat midbrain neurons,"Western blot, measured: MEF2D",,"300 µM, together with: MPP+",131 and 139 and 119
,"Western blot, measured: tyrosine hydroxylase","MPTP mouse model, substantia nigra",10 mg/kg,86.8 and 89.4 and 77 and 107
,"Western blot, measured: MEF2D","MPTP-treated mice, substantia nigra cytosol",10 mg/kg,73.6 and 70.4 and 109 and 57.5
,"western blot, measured: PGC-1α","MPTP mouse model, substantia nigra nuclei",30 mg/kg,98.3 and 88.1 and 102
,"Western blot, measured: PGC-1α","primary midbrain neurons, rat","300 µM, together with: MPP+",91.4 and 115 and 151
primary rat midbrain neurons,"Western blot, measured: MEF2D",,"30 µM, together with: MPP+",72.1 and 113 and 78.8

# Series 5
# SMILES: CCN1/C(=C/C=C2\CCCC(/C=C/C3=[N+](CC)c4ccccc4C3(C)C)=C2NCCCCCCCCN2CCC(Nc3nc4ccccc4n3Cc3ccc(F)cc3)CC2)C(C)(C)c2ccccc21
# Cell line: U-87 MG
# Tested at: concentration not given
# Baseline: DMSO
measured,log2 fold change
OGT mRNA,1.2
PML mRNA,-0.901
NTNG2 mRNA,1.87
SAC3D1 mRNA,-1.31
TUBA1A mRNA,-1.91
TMEM109 mRNA,-0.951
C21orf58 mRNA,-2.53
ELF3 mRNA,4.3
CEBPG mRNA,1.31
HECA mRNA,1.22
EPB41 mRNA,0.873
CBX2 mRNA,-1.42

# Series 6
# Organism: Arabidopsis thaliana
# Strain: Col-0
# Tested at: 6.25 µg/mL
# Notes: seed germination
Compound,root length
CC(C)=CCN1C(=O)C(O)(C(=O)O)Oc2cc(F)ccc21 (stereo not shown),1.15 cm
O=C(O)C1(O)Oc2cc(F)ccc2N(Cc2ccccc2)C1=O (stereo not shown),0.475 cm
Cc1ccc2c(c1)OC(O)(C(=O)O)C(=O)N2Cc1ccccc1 (stereo not shown),1.14 cm
CCN1C(=O)C(O)(C(=O)O)Oc2cc(F)ccc21 (stereo not shown),0.987 cm

# Series 7
# Structure (SMILES): CC[C@@]1(c2cccc(-c3c(F)cncc3OC)c2)C2=C(Nc3n[nH]cc31)[C@H](F)C(C)(C)CC2=O (single isomer, unassigned)
# Tested at: 1 µM
target,observed,method,baseline,remaining binding [%]
"YES1 (Homo sapiens, UniProt P07947)",kinase binding,KINOMEscan,DMSO control,100
"DYRK2 (Homo sapiens, UniProt Q92630)",binding,competition with immobilised ligand,,55
"DYRK1B (Homo sapiens, UniProt Q9Y463)",binding,competition with immobilised ligand,,100
"CDC42BPB (Homo sapiens, UniProt Q9Y5S2)",kinase binding,KINOMEscan,DMSO control,100
"Tyrosine-protein kinase JAK3, JH1 (JAK3, Homo sapiens, UniProt P52333)",binding,competition with immobilised ligand,,64
"NTRK2 (Homo sapiens, UniProt Q16620)",kinase binding,KINOMEscan,DMSO control,74
"MAPKAPK5 (Homo sapiens, UniProt Q8IW41)",binding,competition with immobilised ligand,,89
"TNK2 (Homo sapiens, UniProt Q07912)",kinase binding,KINOMEscan,DMSO control,100
"ERBB3 (Homo sapiens, UniProt P21860)",kinase binding,KINOMEscan,DMSO control,77
"DAPK3 (Homo sapiens, UniProt O43293)",kinase binding,KINOMEscan,DMSO control,90
"Aurora kinase A (AURKA, Homo sapiens, UniProt O14965)",binding,competition with immobilised ligand,,65
"FRK (Homo sapiens, UniProt P42685)",kinase binding,KINOMEscan,DMSO control,100
"Ribosomal protein S6 kinase alpha-6, N-terminal kinase domain (RPS6KA6, Homo sapiens, UniProt Q9UK32)",binding,competition with immobilised ligand,,84
"PIK3CA (Homo sapiens, UniProt P42336, H1047Y)",binding,competition with immobilised ligand,,100
"COQ8B (Homo sapiens, UniProt Q96D53)",binding,competition with immobilised ligand,,100
"Receptor-type tyrosine-protein kinase FLT3, autoinhibited (FLT3, Homo sapiens, UniProt P36888)",kinase binding,KINOMEscan,DMSO control,78

# Series 8
# Target: Sodium-dependent neutral amino acid transporter B(0)AT1 (SLC6A19, Homo sapiens, UniProt Q695T7)
# Sequence of UniProt Q695T7 (whole entry, looked up): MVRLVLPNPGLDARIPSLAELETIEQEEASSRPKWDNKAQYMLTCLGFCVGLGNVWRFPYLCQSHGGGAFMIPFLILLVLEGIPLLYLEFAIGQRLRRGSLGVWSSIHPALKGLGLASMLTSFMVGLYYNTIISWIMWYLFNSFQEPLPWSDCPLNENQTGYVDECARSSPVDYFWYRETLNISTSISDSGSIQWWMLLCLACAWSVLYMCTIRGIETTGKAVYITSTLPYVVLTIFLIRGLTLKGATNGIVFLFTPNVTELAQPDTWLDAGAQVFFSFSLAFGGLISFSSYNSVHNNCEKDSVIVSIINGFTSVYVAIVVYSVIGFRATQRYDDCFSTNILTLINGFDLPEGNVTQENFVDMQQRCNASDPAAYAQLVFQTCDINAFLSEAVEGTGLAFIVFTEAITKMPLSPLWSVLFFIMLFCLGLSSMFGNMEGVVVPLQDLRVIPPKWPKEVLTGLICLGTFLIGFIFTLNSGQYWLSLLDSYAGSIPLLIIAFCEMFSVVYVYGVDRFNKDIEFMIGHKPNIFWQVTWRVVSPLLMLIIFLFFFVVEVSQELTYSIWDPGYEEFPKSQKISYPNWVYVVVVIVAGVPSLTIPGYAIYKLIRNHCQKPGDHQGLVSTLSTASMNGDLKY
# Mode: inhibitor
# Method: FLIPR membrane potential
# Cell line: CHO-BC
# Together with: 1.5 mM L-leucine
SMILES,IC50 [nM]
Cc1cc(OCC(=O)NC(C)C)ccc1Br,440 ± 60
CCCNC(=O)CNc1ccc(I)c(C)c1,34 ± 5
CCNC(=O)CNc1ccc(Br)c(C)c1,31 ± 2

# Other studies, line by line
Structure (SMILES),tested on,assay,system,setting,how to read,endpoint,value
Cc1ccc(O)c(C)c1-c1cnc2[nH]c(-c3cnc(N)nc3)cc2c1C#N,ABL1 phosphorylated human,KINOMEscan,,1000 nM,baseline: control,binding remaining,34%
COCCCCCCC1CC2C(CCC3(C)C(O)CCC23)c2ccc(O)cc21 (stereo not shown),SK-OV-3,"microarray, measured: ISG20L1",,10 µM,baseline: untreated,mRNA level ratio,2.13
Cc1ccc(O)c(C)c1-c1cnc2[nH]c(-c3cnc(N4CCC5(CC4)CC(N4CCN(c6ccc(NC7CCC(=O)NC7=O)cc6F)CC4)CO5)nc3)cc2c1C#N (stereo not shown),HCC1569,"CDK1 Thr14 phosphorylation, in-cell western",,1.37 nM,lower = stronger inhibition,phospho-CDK1 (Thr14) level,26.5 a.u. and 12.6 a.u.
COCC1CC2C(CCC3C(O)CCC32)c2ccc(O)cc21 (stereo not shown),PANC-1,"DNA microarray, measured: KIF20A",,25 µM,baseline: untreated cells,mRNA level ratio,1.48 and 1.59 and 1.6 and 1.47 and 1.53
Cc1ccc(O)c(C)c1-c1cnc2[nH]c(-c3cnc(N4CCC(CN5CCN(c6ccc(NC7CCC(=O)NC7=O)cc6F)CC5)CC4)nc3)cc2c1C#N (stereo not shown),HCC1569,"CDK1 Thr14 phosphorylation, in-cell western",,1000.00 nM,lower = stronger inhibition,phospho-CDK1 (Thr14) level,112 a.u.
Cc1ccc(O)c(C)c1-c1cnc2[nH]c(-c3cnc(N4CCC(CN5CCN(c6ccc7c(c6F)CN(C6CCC(=O)NC6=O)C7=O)CC5)CC4)nc3)cc2c1C#N (stereo not shown),,,"female CD-1 mouse, plasma","oral, 60 mg/kg",,bioavailability,25.1%
